Published values gathered from unrelated publications.
Each numbered part is a random draw from the data of one study; scales do not carry over between parts. Changes are numbered by the printed parent chain.
UniProt Q96D53, sequence (whole entry, looked up): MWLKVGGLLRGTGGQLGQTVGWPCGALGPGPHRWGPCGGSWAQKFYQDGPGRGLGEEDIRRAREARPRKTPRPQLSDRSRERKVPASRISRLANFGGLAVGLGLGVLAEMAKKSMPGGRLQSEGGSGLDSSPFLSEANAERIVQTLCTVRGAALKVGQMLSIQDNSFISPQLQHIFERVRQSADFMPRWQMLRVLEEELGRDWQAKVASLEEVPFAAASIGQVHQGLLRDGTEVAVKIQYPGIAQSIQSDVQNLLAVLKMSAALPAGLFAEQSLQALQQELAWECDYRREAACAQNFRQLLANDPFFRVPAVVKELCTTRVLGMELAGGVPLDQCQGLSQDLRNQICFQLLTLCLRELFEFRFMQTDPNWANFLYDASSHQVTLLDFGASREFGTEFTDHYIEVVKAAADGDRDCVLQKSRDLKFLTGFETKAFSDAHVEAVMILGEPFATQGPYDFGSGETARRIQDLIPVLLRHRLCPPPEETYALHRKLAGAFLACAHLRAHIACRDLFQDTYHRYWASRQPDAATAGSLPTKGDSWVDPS
UniProt P48730, sequence (whole entry, looked up): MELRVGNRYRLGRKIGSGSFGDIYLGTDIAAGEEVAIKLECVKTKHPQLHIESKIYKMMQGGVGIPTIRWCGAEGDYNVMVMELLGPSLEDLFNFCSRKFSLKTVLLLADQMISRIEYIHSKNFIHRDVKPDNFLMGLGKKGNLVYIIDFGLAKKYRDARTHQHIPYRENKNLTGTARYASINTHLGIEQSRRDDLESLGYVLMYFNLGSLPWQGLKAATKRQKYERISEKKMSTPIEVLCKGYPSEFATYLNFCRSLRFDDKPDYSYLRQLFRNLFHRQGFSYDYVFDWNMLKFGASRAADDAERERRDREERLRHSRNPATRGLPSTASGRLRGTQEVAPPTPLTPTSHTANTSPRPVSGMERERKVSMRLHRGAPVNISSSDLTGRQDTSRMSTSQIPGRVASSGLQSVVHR
UniProt P27448, sequence (whole entry, looked up): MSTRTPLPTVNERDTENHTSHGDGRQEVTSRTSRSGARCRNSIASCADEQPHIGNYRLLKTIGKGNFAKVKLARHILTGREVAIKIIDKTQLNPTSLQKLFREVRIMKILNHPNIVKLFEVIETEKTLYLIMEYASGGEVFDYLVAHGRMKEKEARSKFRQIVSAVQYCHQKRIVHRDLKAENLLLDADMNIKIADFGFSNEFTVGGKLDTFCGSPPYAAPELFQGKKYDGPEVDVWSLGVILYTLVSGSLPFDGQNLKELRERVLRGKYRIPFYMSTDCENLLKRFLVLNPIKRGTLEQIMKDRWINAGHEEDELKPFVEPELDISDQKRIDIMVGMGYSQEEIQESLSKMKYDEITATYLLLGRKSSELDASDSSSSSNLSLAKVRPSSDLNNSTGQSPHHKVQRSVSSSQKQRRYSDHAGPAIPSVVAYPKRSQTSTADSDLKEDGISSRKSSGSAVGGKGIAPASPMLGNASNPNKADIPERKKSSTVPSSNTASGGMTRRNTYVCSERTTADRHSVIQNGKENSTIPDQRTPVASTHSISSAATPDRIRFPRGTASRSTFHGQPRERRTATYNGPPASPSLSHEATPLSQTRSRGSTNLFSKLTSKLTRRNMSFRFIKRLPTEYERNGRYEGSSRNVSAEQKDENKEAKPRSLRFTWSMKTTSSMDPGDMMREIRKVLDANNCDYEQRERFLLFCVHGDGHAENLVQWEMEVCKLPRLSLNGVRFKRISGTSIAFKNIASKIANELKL
UniProt O96013, sequence (whole entry, looked up): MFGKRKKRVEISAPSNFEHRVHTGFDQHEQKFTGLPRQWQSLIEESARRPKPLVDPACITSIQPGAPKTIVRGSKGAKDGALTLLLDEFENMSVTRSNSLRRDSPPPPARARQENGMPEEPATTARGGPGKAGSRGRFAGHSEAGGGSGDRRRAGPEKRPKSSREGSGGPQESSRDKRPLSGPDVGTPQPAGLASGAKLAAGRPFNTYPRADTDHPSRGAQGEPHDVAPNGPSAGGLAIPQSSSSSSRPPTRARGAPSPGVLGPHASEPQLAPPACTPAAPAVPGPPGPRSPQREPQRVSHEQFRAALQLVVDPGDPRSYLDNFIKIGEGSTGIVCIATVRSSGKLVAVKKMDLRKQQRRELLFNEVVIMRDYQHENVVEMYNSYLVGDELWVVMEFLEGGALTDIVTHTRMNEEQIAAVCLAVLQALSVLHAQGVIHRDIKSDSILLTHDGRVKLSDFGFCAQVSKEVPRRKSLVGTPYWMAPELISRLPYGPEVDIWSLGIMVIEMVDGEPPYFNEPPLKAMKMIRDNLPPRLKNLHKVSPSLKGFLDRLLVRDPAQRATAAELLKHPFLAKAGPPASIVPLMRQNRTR
UniProt Q14680, sequence (whole entry, looked up): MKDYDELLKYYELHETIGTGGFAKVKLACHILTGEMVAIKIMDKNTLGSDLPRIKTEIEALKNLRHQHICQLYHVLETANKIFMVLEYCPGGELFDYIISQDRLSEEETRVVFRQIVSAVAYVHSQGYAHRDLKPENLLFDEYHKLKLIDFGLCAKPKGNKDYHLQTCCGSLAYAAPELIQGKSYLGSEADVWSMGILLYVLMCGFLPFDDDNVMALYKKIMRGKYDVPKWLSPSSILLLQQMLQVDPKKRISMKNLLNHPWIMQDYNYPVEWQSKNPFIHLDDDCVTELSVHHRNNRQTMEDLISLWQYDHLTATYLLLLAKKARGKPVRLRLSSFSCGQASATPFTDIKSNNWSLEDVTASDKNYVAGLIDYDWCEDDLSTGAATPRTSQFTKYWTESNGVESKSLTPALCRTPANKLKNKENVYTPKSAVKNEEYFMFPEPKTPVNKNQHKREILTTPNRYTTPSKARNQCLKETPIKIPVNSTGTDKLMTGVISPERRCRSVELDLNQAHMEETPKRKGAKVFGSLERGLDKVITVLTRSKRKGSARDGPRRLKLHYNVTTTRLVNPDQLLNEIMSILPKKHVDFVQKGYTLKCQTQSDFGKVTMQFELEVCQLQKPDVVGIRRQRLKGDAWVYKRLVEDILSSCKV
UniProt Q9P286, sequence (whole entry, looked up): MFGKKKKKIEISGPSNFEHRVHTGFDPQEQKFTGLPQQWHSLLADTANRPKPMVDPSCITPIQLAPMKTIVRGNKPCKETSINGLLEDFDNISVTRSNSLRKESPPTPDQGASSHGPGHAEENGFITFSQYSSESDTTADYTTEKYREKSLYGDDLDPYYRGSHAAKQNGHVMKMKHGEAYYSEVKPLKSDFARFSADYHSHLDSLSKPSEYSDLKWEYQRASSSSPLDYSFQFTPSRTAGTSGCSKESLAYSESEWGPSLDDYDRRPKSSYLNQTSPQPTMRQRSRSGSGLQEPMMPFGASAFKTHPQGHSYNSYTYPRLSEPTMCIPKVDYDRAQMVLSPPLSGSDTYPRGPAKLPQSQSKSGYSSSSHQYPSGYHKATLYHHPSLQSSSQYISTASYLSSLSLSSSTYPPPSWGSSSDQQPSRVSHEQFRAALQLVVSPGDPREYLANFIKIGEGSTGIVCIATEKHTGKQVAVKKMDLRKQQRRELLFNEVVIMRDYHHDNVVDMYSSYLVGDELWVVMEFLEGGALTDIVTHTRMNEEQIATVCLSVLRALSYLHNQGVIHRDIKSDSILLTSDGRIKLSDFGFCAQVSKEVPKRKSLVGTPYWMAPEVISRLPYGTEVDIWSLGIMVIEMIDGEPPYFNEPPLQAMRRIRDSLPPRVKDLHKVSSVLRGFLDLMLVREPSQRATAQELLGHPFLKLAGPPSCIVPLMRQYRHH
UniProt Q8IWQ3, sequence (whole entry, looked up): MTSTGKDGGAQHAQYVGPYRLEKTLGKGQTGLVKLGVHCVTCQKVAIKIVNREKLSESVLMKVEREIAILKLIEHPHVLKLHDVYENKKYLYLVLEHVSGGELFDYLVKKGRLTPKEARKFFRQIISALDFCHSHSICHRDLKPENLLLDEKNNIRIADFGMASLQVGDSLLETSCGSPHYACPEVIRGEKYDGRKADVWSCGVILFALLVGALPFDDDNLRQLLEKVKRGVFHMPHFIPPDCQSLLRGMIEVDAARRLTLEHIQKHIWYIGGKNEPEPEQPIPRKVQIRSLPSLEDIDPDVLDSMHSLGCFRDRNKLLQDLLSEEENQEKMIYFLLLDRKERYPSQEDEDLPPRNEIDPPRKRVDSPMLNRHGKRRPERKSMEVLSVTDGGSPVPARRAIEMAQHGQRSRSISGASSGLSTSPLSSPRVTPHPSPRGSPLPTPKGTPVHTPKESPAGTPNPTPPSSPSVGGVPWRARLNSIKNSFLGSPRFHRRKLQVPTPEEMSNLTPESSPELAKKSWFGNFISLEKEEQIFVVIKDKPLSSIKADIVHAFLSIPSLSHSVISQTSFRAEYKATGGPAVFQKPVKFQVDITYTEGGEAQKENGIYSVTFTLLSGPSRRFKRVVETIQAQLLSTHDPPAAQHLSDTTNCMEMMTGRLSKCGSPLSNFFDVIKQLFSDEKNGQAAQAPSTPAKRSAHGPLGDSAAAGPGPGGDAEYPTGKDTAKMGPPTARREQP
UniProt P07947, sequence (whole entry, looked up): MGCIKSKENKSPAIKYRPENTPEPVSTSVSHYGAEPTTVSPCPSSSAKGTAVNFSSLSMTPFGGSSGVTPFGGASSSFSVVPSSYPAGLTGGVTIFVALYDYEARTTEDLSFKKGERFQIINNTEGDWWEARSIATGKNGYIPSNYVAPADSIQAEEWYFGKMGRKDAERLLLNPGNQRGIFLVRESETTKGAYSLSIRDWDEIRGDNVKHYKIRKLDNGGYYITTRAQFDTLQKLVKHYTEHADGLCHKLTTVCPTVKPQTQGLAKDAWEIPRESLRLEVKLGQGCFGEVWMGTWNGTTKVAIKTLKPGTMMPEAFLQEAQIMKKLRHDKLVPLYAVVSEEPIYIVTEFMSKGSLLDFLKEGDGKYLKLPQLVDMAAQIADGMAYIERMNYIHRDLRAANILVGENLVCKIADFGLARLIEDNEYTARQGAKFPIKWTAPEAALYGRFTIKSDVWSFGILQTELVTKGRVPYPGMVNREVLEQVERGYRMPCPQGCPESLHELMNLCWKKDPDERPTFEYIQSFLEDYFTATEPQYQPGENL

Sample 1
Compound: CC(C)CC(=O)N1CCc2nc(-c3ccc(Br)cc3)nc(N(C)Cc3ccccc3)c2C1
Read-out: cell-free assay
Method: competition with immobilised ligand
Tested at: 0.1 µM
| target | remaining binding [%] |
| --- | --- |
| MARK3 (Homo sapiens, UniProt P27448) | 100 |
| Ribosomal protein S6 kinase alpha-5, N-terminal kinase domain (RPS6KA5, Homo sapiens, UniProt O75582) | 96 |
| COQ8B (Homo sapiens, UniProt Q96D53) | 100 |

Sample 2
Target: ABI1, truncated, D143A, DHFR fusion (Arabidopsis thaliana, UniProt P49597)
Method: DHFR PCA, dose-response
Sample: yeast
Notes: Hill fit, mean, not affinity
Together with: (+)-ABA, dose series
Reading: lower = more sensitive
Parent: PYL1, truncated, DHFR fusion (Arabidopsis thaliana, UniProt Q8VZS8); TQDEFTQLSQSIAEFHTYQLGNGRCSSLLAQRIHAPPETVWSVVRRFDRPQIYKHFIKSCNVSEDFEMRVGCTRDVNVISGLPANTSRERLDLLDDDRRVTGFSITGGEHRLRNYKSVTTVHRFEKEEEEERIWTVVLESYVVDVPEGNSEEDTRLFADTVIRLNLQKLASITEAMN
| Change | ABA EC50 |
| --- | --- |
| N114F | 439 µM |
| R111N | 24 µM |
| S150L | 57.7 µM |
| Q167N | 1.83 µM |
| E128Q | 1.77 µM |
| R88E | 1.96 µM |
| R98E | 22.3 µM |
| D97L | 6.37 µM |

Sample 3
Structure (SMILES): Cn1cnc2cc3c(Nc4cccc(Br)c4)ncnc3cc21
Read-out: enzyme activity
Mode: inhibitor
Tested at: 0.5 µM
Baseline: control
| target | remaining activity [%] |
| --- | --- |
| PRKCZ (Homo sapiens, UniProt Q05513) | 102 |
| PAK4 (Homo sapiens, UniProt O96013) | 105 |
| ERBB2 (Homo sapiens, UniProt P04626) | 47.4 |
| Cyclin-dependent kinase 5, with p35 (CDK5, Homo sapiens, UniProt Q00535) | 84.6 |
| RPS6KB2 (Homo sapiens, UniProt Q9UBS0) | 96.8 |
| BRSK2 (Homo sapiens, UniProt Q8IWQ3) | 88.6 |
| FES (Homo sapiens, UniProt P07332) | 101 |
| MARK1 (Homo sapiens, UniProt Q9P0L2) | 94.3 |
| YES1 (Homo sapiens, UniProt P07947) | 45.7 |
| CSNK1D (Homo sapiens, UniProt P48730) | 93.9 |
| PAK5 (Homo sapiens, UniProt Q9P286) | 86.1 |
| RPS6KA3 (Homo sapiens, UniProt P51812) | 105 |
| MELK (Homo sapiens, UniProt Q14680) | 89 |

Sample 4
Target: Histone acetyltransferase KAT6A, winged helix 1, GST fusion (KAT6A, Homo sapiens, UniProt Q92794, residues 1-85)
Method: protein binding microarray
Form: double-stranded DNA, one strand shown
Sample: in vitro
Tested at: not given
Notes: 8-mer, flanks averaged, mean of 2 arrays, mostly near background
Baseline: not given
Reading: higher = stronger binding
Residues (chain): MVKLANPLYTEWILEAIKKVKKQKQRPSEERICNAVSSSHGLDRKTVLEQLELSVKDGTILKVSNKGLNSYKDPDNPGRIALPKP
| Sequence | E-score |
| --- | --- |
| AACAGCCG | 0.167 |
| AAGGGACG | 0.0201 |
| CGCCGCCG | 0.479 |
| AAGAGCAT | -0.117 |
| GTGTATGA | -0.0951 |
| ATCGCCAG | -0.0196 |
| GTCTTAAA | -0.0772 |
| AAAAAGGA | -0.279 |
